Measurements of several laboratories.
Compare with care: the assays were run in different laboratories. Several values in a cell are separate wells, animals, samples, runs or records. ± gives the spread as reported.

For `C[C@@H](O)CCOC(=O)C[C@@H](C)O`, the plasma glucagon was 21 pM (human; oral drink, dose not given, 120 min post dose, median, all participants).
Under “inhibition of platelet aggregation”, `NCC(=O)Nc1cncc(-c2nn3c(=O)cc(N4CCNCC4)nc3s2)c1` is recorded as 69.7% (ADP-induced platelet aggregation, light transmission aggregometry; human stable CAD patients on aspirin, platelets ex vivo; 0.05 mg/kg, 15 min post dose, with: 20 µM ADP; reference: placebo difference).
`CCN1CCN(Cc2ccc(Nc3ncc(F)c(-c4cc(F)c5nc6n(c5c4)[C@H](C)CCC6)n3)nc2)CC1` has a progressive disease of 16.7% (human advanced solid tumours; 500 mg, phase Ia monotherapy RECIST 1.1).
`N#Cc1ccn2c(-c3ccncc3)c(-c3ccc(F)cc3)nc2c1`: “log2 fold change” -0.251 (kinase binding, competitor, MIB/MS competition, measured: HRK1; Candida albicans cell lysate; 100 nM; reference: DMSO).
With `O=C(O)CNC(=O)Cc1ccccc1` the sarcomere length was 1.72 µm (ventricular cardiomyocytes, C57BL/6 mouse; dose not given, 0.748 s).
`C[C@]12CC[C@@H]3c4ccc(O)cc4C[C@@H](CCCCCCCCC[S+]([O-])CCCC(F)(F)C(F)(F)F)[C@H]3[C@@H]1CC[C@@H]2O` (some centres unmarked) gave a tumour volume of 37.8 mm3 and 42.5 mm3 and 17.4 mm3 and 27.7 mm3 and 32.7 mm3 and 34 mm3 (female nude mouse LCC2 xenograft; 2.0 mg/kg, day 3, tamoxifen-resistant).
`COc1ccccc1[C@H](Cn1c(=O)n(C(C)(C)C(=O)O)c(=O)c2c(C)c(-c3ncco3)sc21)OC1CCOCC1` — result for “fractional hepatic DNL”: 5.47 % new palmitate ([1-13C]acetate infusion, isotopomer analysis; overweight or obese healthy men, plasma VLDL-TG palmitate; oral, 200 mg single dose, 4 h post-dose, with: oral fructose).
With `COc1cc(N2CCC(N3CCN(C)CC3)CC2)ccc1Nc1ncc(Cl)c(Nc2ccccc2P(C)(C)=O)n1` the tumour volume was 37.7 mm3 and 30.3 mm3 and 78 mm3 and 44.8 mm3 and 32.7 mm3 (nude mice, NCI-H3122 xenograft; intraperitoneal, 10 mg/kg every other day, day 1).
`C[C@H]1O[C@@H](O[C@H]2CC[C@@]3(C)[C@@H](CC[C@]4(C)[C@@H]3C=C[C@]35OC[C@@]6(CCC(C)(C)C[C@H]63)[C@@H](O)C[C@]54C)[C@]2(C)CO)[C@H](O)[C@@H](O[C@@H]2O[C@H](CO)[C@@H](O)[C@H](O)[C@H]2O)[C@H]1O`: “Oil Red O area” 10.2% and 23.4% and 12.7% and 20.4% and 31.2% (chronic-plus-binge ethanol-fed mice, liver; dose not given, low dose; reference: area).
For `CCCN1CCCC[C@H]1C(=O)Nc1c(C)cccc1C`, “motor block duration” read 156 ± 8.8 min (Sprague-Dawley rat, female; sciatic nerve injection, 15 mM).
`Cc1ccc([C@@H]2O[C@H](CO)[C@@H](O)[C@H](O)[C@H]2O)cc1Cc1ccc(-c2ccc(F)cc2)s1` — result for “change in fasting serum insulin”: -1.5 µU/mL (Japanese type 2 diabetes patients; 200 mg, day 2; reference: day 1).
`COc1cc2cc(-c3ccc(CC(=O)Nc4cc(C(C)(C)C(F)(F)F)no4)cn3)cnc2cc1OC` — result for “partial response as best response”: 29% (human RET-altered advanced solid tumours; dose not given, phase I total, RECIST 1.1).
The reticulocytes of `CC(=O)NCC(=O)NCC(=O)N[C@H](C(=O)N[C@@H](Cc1ccc(O)cc1)C(=O)N[C@@H](CO)C(=O)N[C@H]1CSSC[C@@H](C(=O)N[C@@H](CCCNC(=N)N)C(=O)N2CCC[C@H]2C(=O)N[C@@H](CCC(N)=O)C(=O)N[C@@H](CCCNC(=N)N)C(=O)NCC(=O)NCCC(=O)N[C@@H](CCCCNC(=O)CN(CC(=O)NCCCC[C@H](NC(=O)CCNC(=O)CNC(=O)[C@H](CCCNC(=N)N)NC(=O)[C@H](CCC(N)=O)NC(=O)[C@@H]2CCCN2C(=O)[C@H](CCCNC(=N)N)NC(=O)[C@@H]2CSSC[C@H](NC(=O)[C@H](CO)NC(=O)[C@H](Cc3ccc(O)cc3)NC(=O)[C@@H](NC(=O)CNC(=O)CNC(C)=O)[C@@H](C)O)C(=O)N[C@@H](Cc3c[nH]cn3)C(=O)N[C@@H](Cc3ccccc3)C(=O)NCC(=O)N[C@@H](C)C(=O)N[C@@H](CC(C)C)C(=O)N[C@@H]([C@@H](C)O)C(=O)N[C@@H](Cc3c[nH]c4ccccc34)C(=O)N[C@@H](C(C)C)C(=O)N2)C(N)=O)C(=O)CCN)C(N)=O)NC(=O)[C@H](C(C)C)NC(=O)[C@H](Cc2c[nH]c3ccccc23)NC(=O)[C@H]([C@@H](C)O)NC(=O)[C@H](CC(C)C)NC(=O)[C@H](C)NC(=O)CNC(=O)[C@H](Cc2ccccc2)NC(=O)[C@H](Cc2c[nH]cn2)NC1=O)[C@@H](C)O` is reported as 6.4% (healthy BALB/c mice; subcutaneous, 0.08 mg/kg, 4 d, single dose).
For `CCc1c(C)nc(-c2ccc(Cl)s2)nc1Nc1ccc(CC(=O)O)cc1`, PDE4B expression read “decreased” (C57BL/6J mouse, MCD diet MASH model, liver; intraperitoneal, 0.3 mg/kg daily, MCD diet 6 weeks, dosed final two weeks; reference: untreated).
With `O=C(OC(C(F)(F)F)C(F)(F)F)N1CCN(Cc2cccc(Oc3ccccc3)c2)CC1` the k3 was 1.79 min⁻¹ (PET blocking study; rhesus monkey, brain Pons; 0.3 mg/kg, compound pretreatment, with: [18F]T-401 tracer).
`O=C(NO)c1ccc(CN(c2cnccn2)c2cnccn2)cc1` has a progression-free survival of 12.6 months (human; 400 mg BID).
`CN(C(=O)n1cnc(-c2ccc[n+]([O-])c2)c1)C1CCCCC1` has an AUC(0-t) of 282 ng·h/mL (measured: PEA; human, plasma; 1.25 mg single dose).
The fold change of `COc1ccc(-c2cncc(N[C@@H](C)c3cccc(NC(=O)c4cncc(C)c4)c3)n2)cc1OC` is reported as 2.12 (measured: rno-miR-382-5p; rat SU5416/hypoxia model, lung; dose not given; reference: SU5416/hypoxia vehicle).
`N#Cc1ccc2c(-c3ccncc3)c(-c3ccc(F)cc3)nn2c1` — result for “log2 fold change”: -0.582 (kinase binding, competitor, MIB/MS competition, measured: CTK1; Candida albicans cell lysate; 100 nM; reference: DMSO).
For `N=C(N)NCCC[C@@H](NC(=O)CCOCCOCCNC(=O)[C@H](CCCCNC(=O)CC[C@H](NC(=O)c1ccc(NCc2cnc3nc(N)[nH]c(=O)c3n2)cc1)C(=O)O)NC(=O)CO/N=C/[C@H](F)[C@@H](O)[C@H](O)[C@H](O)CO)C(=O)NCC(=O)N[C@H](CC(=O)O)C(N)=O` [fluorine-18 labelled], the tumour uptake was 0.95 ± 0.27 %ID/g (nude mice, MDA-MB-231 xenograft, tumour; 2.5 h, with: unlabelled RGD 200 µg).
`C[C@H](Oc1ccc(Br)cc1-c1ccon1)C(=O)O` — result for “difference from placebo”: 0.073 mV (mean CMAP amplitude; human, tibialis anterior muscle; 800 mg, SAD).
With `OCC(O)CO` the FGF21 level was 2490 pg/mL and 2310 pg/mL and 737 pg/mL and 936 pg/mL and 545 pg/mL (ELISA; male Slc25a13-/- Gpd2-/- mice, serum; drinking water, 5% w/v, 2 days).
`N#Cc1ccc2c(c1)[C@H]1CCCN(C(=O)c3ccc4[nH]cnc4c3)[C@H]1C2`: “change from baseline” 6.6 mg/dL (measured: FPG; human; 20 mg once daily, day 28, adjusted mean).
`C1=C/COCc2cc(ccc2OCCN2CCCC2)Nc2nccc(n2)-c2cccc(c2)COC/1` gave a CD71/Ter119 cells of 21.8% and 24.2% and 23% and 23.8% and 23.7% and 17.8% (BALB/c mice rhEPO-induced polycythemia, spleen; 120 mg/kg).
`N#CC[C@H](C1CCCC1)n1cc(-c2ncnc3[nH]ccc23)cn1` — result for “peak inhibition range”: 0.9 to 85.8% (phosphoflow cytometry, measured: pS6; patient plasma; concentration not given).
With `CC(c1cc2ccccc2s1)N(O)C(N)=O` (centres unmarked) the 15-HETE level was 228 ± 90 pg/mL (human blood; 3 µM, with: A23187).
For `C=CCn1c(=O)c2cnc(Nc3ccc(N4CCN(C)CC4)cc3)nc2n1-c1ccc2c(n1)[C@@](O)(CC)CC2`, “tumour volume difference” read 164 ± 22.8 mm3 (SUM149PT xenograft, BALB/c nude mice; oral, 80 mg/kg, day 33, once daily intermittent x 6 cycles).
`N#Cc1ccc2c(c1)[C@H]1CCCN(C(=O)c3ccc4[nH]cnc4c3)[C@H]1C2` — result for “change in HOMA-IR”: -0.8% (human, plasma; 10 mg, day 15, 360 h; reference: placebo and baseline).
For `O=C(O)CSc1nnc(Br)n1-c1ccc(C2CC2)c2ccccc12`, “decrease in serum uric acid” read 10.8% (mouse, acute hyperuricaemia model; 1 mg/kg).
Under “pure tone average”, `CC(C)[C@H](C(=O)Nc1ccc(C(=O)NO)cc1)c1ccccc1` is recorded as 12 dB (human, right ear; 9 months after treatment).
For `Cc1n[nH]c2ccc(-c3cc(OC[C@@H](N)Cc4ccccc4)cnc3-c3ccoc3)cc12`, “log2 fold change” read -0.0805 (kinase binding, competitor, MIB/MS competition, measured: KIN2; Candida albicans cell lysate; 100 nM; reference: DMSO).
`COc1cc(F)c([C@@H]2CNC(=O)[C@H]2NC(=O)Nc2ccccc2)c(F)c1` gave a heart rate of 310 ± 15 bpm (terminal haemodynamics; rat, permanent coronary occlusion MI; 1 mg/kg, 1008 h, 6 weeks post-MI).
`CC(C)NCC(O)c1ccc(O)c(O)c1` (centres unmarked) has a sarcomere length of 1.5 µm (ventricular cardiomyocytes, C57BL/6 mouse; dose not given, 0.856 s).
`Cn1cc([C@H]2C[C@H]3CSC(N)=N[C@@]3(c3ccc(F)cc3F)CO2)cn1` — result for “brain Aβ40 level”: 1.23 ng/g (measured: Aβx-40; wild-type mouse, brain; subcutaneous, 50 mg/kg, 9 h).
For `NC(=O)c1cnc2[nH]ccc2c1N[C@@H]1[C@@H]2CC3C[C@H]1C[C@@](O)(C3)C2`, “change from baseline” read 0.18% (flow cytometry, measured: CD8+ effector memory T cells; Japanese healthy subjects, peripheral blood; oral, 100 mg twice daily, day 7).
`O=C(COc1ccc(Cl)cc1)NC12CC(c3nnc([C@H]4C[C@@H](OC(F)(F)F)C4)o3)(C1)C2`: “CHAC1 mRNA change” -70.2% (healthy human, PBMC; 45 mg once daily, day 15, 24 h post-dose, median, with: sodium arsenite ex vivo; reference: baseline).
Under “overall response rate”, `COc1ccc(F)cc1C(=O)NCc1ccc(-c2nn([C@@H](C)C(F)(F)F)c(N)c2C(N)=O)cc1` is recorded as 66% (CLL/SLL patients, BTK wild type; dose not given).
For `CC[C@@H]1[C@H](F)C(=O)N[C@@H]1COc1nccc2cc(C(N)=O)c(OC)cc12`, the inhibition was 8.7% (ATP-site probe binding, ActivX profiling, measured: MAP3K2, MAP3K3; THP-1 cell lysate; 0.01 mM, Lys2 site).
For `Cn1cc(Nc2nccc(-c3ccc4c(c3)CN(C3COC3)CC[C@H]4NC(=O)c3cn(C(C)(C)C)nn3)n2)cn1`, “pathway activation z-score” read 2.71 (measured: Toll-like receptor signaling; splenic B cells, mice; 30 mg/kg, IgD-activated in vivo; reference: vehicle, direction not given).
`CSCCNc1nc(SCCC(F)(F)F)nc2c1ncn2[C@@H]1O[C@H](COP(=O)(O)OP(=O)(O)C(Cl)(Cl)P(=O)(O)O)[C@@H](O)[C@H]1O`: “patients with IPA above 90%” 0% (light transmittance aggregometry; human patients, platelet-rich plasma; dose not given, 2 h, with: ADP 20 µM; reference: patients).
For `C[C@H]1C[C@H]2CSC(N)=N[C@@]2(c2nc(NC(=O)c3ccc(OC(F)F)cn3)cs2)CO1`, “percent change from baseline” read -61.6% (measured: total Aβ; healthy adults, plasma; 50 mg once daily, day 4; reference: placebo).
`C[C@H](NC(=O)c1c(C(F)F)nn(C)c1Oc1cccc(C(F)(F)F)c1)c1ccc(C(=O)O)cc1` has a progressive disease of 57.1% (irRECIST; human, advanced tumours; 500 mg; best overall response).
For `OC(CCN1CCCCC1)(c1ccccc1)C1CC2C=CC1C2` (centres unmarked), “power, theta EEG, Fz-Cz” read 3.2 µV² (resting-state EEG; healthy elderly humans; oral, 4 mg, eyes closed, LS mean).
`c1ccc(-c2n[nH]cc2-c2ccnc3ccccc23)nc1` — result for “log2 fold change”: 1.18 (kinase binding, competitor, MIB/MS competition, measured: PKH2; Candida albicans cell lysate; 1 µM; reference: DMSO).
`CSc1ccc(C(=O)/C=C/c2cc(C)c(OC(C)(C)C(=O)O)c(C)c2)cc1`: “serum HDL level” “increased” (db/db mice on MCD diet; oral, 30 mg/kg daily, 45 days).
`CC1(C)CCC(c2ccc(Cl)cc2)=C(CN2CCN(c3ccc(C(=O)NS(=O)(=O)c4ccc(N[C@H](CCN5CCOCC5)CSc5ccccc5)c(S(=O)(=O)C(F)(F)F)c4)cc3)CC2)C1` has an EC50 of 489 nM (cell killing, flow cytometry PI exclusion; canine blood CD21+ B cells, dog 30; 24 h).
For `CN(CCOc1ccc(CC2SC(=O)NC2=O)cc1)c1ccccn1` (racemic), the locomotor activity was 762 ± 352 counts/20 min (indirect calorimetry; lean mice; dose not given, average over 72 h, end of treatment).

For quick reference, copied from above:
`N#Cc1ccc2c(c1)[C@H]1CCCN(C(=O)c3ccc4[nH]cnc4c3)[C@H]1C2` — result for “change in HOMA-IR”: -0.8% (human, plasma; 10 mg, day 15, 360 h; reference: placebo and baseline).
For `O=C(O)CSc1nnc(Br)n1-c1ccc(C2CC2)c2ccccc12`, “decrease in serum uric acid” read 10.8% (mouse, acute hyperuricaemia model; 1 mg/kg).
Under “pure tone average”, `CC(C)[C@H](C(=O)Nc1ccc(C(=O)NO)cc1)c1ccccc1` is recorded as 12 dB (human, right ear; 9 months after treatment).
For `Cc1n[nH]c2ccc(-c3cc(OC[C@@H](N)Cc4ccccc4)cnc3-c3ccoc3)cc12`, “log2 fold change” read -0.0805 (kinase binding, competitor, MIB/MS competition, measured: KIN2; Candida albicans cell lysate; 100 nM; reference: DMSO).
